Assay results pooled from the literature.
Lines come from different studies, so protocols differ.
B1: Plxna2 35-703 (Mus musculus, UniProt P70207); chain MPQYSTFHSENRDWTFNHLTVHRRTGAVYVGAINRVYKLTGNLTIQVAHKTGPEEDNKACYPPLIVQPCSEVLTLTNNVNKLLIIDYSENRLLACGSLYQGVCKLLRLDDLFILVEPSHKKEHYLSSVNKTGTMYGVIVRSEGEDGKLFIGTAVDGKQDYFPTLSSRKLPRDPESSAMLDYELHSDFVSSLIKIPSDTLALVSHFDIFYIYGFASGGFVYFLTVQPETPDGMAINSAGDLFYTSRIVRLCKDDPKFHSYVSLPFGCTRAGVEYRLLQAAYLAKPGEALAQAFNISSDEDVLFAIFSKGQKQYHHPPDDSALCAFPIRAINLQIKERLQSCYHGEGNLELNWLLGKDVQCTKAPVPIDDNFCGLDINQPLGGSTPVEGLTLYTTSRDRLTSVASYVYNGYSVVFVGTKSGKLKKIRADGPPHGGVQYEMVSVFKDGSPILRDMAFSINQLYLYVMSERQVTRVPVESCEQYTTCGECLSSGDPHCGWCALHNMCSRRDKCQRAWEANRFAASISQCMSLEVHPNSISVSDHSRLLSLVVNDAPNLSEGIACAFGNLTEVEGQVSGSQVICISPGPKDVPVIPLDQDWFGLELQLRSKETGKIFVSTEFKFYNCSAHQLCLSCVNSAFRCHWCKYRNLCTHDPTTCSFQEGRINVSEDCPQ
B2: TIMP3 24-144 (Homo sapiens, UniProt P35625); sequence looked up; chain CTCSPSHPQDAFCNSDIVIRAKVVGKKLVKEGPFGTLVYTIKQMKMYRGFTKMPHVQYIHTEASESLCGLKLEVNKYQYLLTGRVYDGKMYTGLCNFVERWDQLTLSQRKGLNYRYHLGCN
B3: erenumab; V domains shown; sequence looked up; VH QVQLVESGGGVVQPGRSLRLSCAASGFTFSSFGMHWVRQAPGKGLEWVAVISFDGSIKYSVDSVKGRFTISRDNSKNTLFLQMNSLRAEDTAVYYCARDRLNYYDSSGYYHYKYYGMAVWGQGTTVTVSS; VL QSVLTQPPSVSAAPGQKVTISCSGSSSNIGNNYVSWYQQLPGTAPKLLIYDNNKRPSGIPDRFSGSKSGTSTTLGITGLQTGDEADYYCGTWDSRLSAVVFGGGTKLTVL
Sequence of UniProt P07949 (whole entry, looked up): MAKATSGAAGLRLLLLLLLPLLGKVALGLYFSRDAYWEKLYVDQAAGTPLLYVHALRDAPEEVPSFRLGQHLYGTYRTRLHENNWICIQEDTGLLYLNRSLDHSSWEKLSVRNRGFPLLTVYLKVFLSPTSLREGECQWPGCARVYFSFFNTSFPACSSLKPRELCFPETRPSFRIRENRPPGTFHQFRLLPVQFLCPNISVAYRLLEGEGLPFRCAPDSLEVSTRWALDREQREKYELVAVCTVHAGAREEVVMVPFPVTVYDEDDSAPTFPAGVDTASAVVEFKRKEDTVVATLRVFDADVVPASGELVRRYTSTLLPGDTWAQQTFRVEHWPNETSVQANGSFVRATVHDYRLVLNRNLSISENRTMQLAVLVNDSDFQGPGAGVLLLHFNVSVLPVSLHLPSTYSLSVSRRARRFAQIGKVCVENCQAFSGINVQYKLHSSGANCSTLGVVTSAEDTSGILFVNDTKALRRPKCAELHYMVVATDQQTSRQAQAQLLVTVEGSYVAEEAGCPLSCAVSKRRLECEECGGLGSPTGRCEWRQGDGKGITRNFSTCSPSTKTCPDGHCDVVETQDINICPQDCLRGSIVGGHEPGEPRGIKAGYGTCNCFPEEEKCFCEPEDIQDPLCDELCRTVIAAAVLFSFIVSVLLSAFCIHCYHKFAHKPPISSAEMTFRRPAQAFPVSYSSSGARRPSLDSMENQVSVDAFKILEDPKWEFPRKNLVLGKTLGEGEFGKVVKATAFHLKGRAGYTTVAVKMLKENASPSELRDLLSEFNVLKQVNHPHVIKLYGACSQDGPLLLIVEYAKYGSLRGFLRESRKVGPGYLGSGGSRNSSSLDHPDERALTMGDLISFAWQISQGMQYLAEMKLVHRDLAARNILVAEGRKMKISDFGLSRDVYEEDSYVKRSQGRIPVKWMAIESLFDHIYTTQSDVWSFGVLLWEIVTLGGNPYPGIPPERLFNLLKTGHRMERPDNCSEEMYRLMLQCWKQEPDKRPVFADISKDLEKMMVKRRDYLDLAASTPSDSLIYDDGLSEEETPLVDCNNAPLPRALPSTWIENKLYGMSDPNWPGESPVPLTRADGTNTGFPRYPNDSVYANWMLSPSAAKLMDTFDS
Sequence of UniProt O35464 (whole entry, unmodified, looked up): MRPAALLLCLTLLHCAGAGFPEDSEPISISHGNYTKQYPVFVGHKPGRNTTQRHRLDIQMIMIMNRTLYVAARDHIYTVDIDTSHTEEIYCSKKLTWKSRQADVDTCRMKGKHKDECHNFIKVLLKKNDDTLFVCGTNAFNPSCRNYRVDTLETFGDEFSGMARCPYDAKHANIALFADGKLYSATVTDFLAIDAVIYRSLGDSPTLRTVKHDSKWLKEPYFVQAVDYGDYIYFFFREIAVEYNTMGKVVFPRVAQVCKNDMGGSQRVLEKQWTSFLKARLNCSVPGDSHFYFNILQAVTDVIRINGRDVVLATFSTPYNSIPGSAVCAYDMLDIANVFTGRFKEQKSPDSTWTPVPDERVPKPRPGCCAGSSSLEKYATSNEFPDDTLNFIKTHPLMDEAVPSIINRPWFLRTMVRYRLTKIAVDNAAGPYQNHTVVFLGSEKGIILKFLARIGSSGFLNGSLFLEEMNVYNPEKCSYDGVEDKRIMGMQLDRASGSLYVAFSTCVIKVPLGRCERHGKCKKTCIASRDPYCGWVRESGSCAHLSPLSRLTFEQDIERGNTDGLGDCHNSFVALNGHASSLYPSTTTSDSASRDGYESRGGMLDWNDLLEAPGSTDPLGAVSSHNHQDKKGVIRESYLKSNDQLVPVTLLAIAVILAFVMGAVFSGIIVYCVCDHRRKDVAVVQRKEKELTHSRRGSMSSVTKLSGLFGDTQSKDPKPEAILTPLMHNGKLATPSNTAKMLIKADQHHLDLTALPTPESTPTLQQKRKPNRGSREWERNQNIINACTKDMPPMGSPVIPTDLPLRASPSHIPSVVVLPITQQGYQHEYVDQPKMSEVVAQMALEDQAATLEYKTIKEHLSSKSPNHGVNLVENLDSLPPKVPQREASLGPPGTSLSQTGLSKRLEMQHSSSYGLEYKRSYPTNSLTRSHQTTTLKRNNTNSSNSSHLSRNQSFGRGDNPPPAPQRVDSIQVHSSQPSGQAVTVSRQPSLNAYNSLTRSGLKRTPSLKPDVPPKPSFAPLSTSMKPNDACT
Sequence of UniProt Q08162 (whole entry, looked up): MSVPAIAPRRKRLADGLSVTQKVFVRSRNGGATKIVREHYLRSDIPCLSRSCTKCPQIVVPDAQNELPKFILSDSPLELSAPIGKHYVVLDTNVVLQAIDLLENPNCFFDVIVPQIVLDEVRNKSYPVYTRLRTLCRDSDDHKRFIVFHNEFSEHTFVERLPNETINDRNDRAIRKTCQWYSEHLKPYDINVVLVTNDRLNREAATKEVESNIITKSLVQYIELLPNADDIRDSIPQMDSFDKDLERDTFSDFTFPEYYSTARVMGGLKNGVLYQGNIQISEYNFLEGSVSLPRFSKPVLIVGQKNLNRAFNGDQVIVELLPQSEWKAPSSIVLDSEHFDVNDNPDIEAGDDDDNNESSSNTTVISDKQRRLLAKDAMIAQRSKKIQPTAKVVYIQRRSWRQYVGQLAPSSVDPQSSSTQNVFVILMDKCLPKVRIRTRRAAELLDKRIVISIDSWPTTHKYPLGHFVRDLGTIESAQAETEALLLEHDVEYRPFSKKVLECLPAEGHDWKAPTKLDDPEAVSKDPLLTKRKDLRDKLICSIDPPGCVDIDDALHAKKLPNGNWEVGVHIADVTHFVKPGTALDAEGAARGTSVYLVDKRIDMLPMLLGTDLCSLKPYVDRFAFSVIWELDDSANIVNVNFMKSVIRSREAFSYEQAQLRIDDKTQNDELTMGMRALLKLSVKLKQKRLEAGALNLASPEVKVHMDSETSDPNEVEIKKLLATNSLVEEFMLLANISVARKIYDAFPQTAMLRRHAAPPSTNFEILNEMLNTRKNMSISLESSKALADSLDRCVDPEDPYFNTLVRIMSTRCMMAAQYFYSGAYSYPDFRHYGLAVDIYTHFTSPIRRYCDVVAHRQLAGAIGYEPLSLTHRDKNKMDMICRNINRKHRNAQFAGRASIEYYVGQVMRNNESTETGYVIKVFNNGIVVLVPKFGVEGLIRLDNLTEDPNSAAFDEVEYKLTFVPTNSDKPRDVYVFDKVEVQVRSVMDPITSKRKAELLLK
Sequence of UniProt Q9UNA0 (whole entry, unmodified, looked up): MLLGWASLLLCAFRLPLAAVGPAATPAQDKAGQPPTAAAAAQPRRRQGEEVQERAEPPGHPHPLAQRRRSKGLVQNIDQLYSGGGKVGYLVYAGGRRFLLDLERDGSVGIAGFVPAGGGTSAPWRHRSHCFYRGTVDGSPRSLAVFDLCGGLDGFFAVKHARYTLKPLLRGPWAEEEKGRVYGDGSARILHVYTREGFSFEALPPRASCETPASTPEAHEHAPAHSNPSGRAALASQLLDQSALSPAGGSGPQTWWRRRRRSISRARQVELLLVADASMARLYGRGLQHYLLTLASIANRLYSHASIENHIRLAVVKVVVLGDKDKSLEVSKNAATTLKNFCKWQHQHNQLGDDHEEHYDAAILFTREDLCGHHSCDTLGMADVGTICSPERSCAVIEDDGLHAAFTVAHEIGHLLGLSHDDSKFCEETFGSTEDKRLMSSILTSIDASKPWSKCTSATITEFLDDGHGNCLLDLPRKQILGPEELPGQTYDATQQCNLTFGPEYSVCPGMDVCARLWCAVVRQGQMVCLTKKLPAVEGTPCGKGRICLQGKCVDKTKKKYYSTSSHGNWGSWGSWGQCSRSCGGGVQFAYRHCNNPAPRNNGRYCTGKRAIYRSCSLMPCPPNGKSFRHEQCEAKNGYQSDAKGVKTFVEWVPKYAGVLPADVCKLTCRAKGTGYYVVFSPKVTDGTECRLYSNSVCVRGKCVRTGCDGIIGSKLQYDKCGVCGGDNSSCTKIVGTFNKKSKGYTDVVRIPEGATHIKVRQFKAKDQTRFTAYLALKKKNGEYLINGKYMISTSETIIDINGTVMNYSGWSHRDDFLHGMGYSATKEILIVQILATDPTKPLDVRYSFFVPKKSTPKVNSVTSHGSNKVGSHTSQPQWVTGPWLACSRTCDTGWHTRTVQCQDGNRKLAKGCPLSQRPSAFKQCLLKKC
Sequence of UniProt P10909 (whole entry, looked up): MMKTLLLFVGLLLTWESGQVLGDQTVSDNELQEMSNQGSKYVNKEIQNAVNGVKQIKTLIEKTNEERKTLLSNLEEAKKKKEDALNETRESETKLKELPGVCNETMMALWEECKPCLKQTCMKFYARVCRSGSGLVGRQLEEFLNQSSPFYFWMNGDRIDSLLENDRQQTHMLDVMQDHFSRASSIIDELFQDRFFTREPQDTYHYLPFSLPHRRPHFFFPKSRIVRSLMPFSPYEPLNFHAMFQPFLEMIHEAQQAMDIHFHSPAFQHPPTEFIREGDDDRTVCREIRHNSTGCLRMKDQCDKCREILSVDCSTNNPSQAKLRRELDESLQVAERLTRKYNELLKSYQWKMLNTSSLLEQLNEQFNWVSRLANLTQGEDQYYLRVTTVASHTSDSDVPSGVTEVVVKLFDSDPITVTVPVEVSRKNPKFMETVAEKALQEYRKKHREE
Sequence of UniProt P04177 (whole entry, looked up): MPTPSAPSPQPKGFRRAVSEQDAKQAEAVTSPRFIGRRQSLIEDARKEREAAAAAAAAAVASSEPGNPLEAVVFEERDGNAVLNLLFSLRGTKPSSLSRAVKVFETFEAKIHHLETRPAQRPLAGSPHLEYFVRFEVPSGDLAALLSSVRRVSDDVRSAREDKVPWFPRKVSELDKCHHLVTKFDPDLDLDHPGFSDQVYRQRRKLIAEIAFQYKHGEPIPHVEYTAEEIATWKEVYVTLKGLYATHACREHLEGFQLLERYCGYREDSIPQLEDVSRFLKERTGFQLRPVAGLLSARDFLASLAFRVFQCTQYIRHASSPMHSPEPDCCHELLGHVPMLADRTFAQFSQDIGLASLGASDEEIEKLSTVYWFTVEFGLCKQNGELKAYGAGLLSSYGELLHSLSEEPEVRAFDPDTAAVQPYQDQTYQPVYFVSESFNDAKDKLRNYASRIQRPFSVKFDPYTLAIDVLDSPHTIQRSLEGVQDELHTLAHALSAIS

Under “relative exoribonuclease activity”, `DIS3 (Saccharomyces cerevisiae, UniProt Q08162)` is recorded as 42 fold (CSL4/RRP4/RRP40/RRP41/RRP42/RRP46/RRP43/RRP45/MTR3 Exo9 core (Saccharomyces cerevisiae); polyA RNA degradation; baseline: free Rrp44, lower = less active).
For `B1 (Plxna2 35-703)`, “fold decrease in affinity” read over 40 fold (Sema6A ectodomain 19-571 (Mus musculus, UniProt O35464); SPR; 25 °C; baseline: plexin-coupled orientation, higher = weaker binding).
For `clusterin, methionine sulfoxide (Homo sapiens, UniProt P10909)`, “maximal Aβ42 fibrillation” read 76% (APP Aβ42 (UniProt P05067); ThT fluorescence; 0.3 µM, 37 °C; baseline: Aβ42 or BSA alone, higher = more fibrillation).
With `TIMP2 N-terminal domain S4P/I35V/S68N/V71I/H97R` the Ki was 106 nM (MMP14 fragment (Homo sapiens); fluorogenic substrate cleavage, inhibitor, enzyme inhibition assay; apparent).
With `UGT1A9 (Homo sapiens, UniProt O60656)` the Km was 2.02 µM (O=c1cc(-c2cccc(O)c2)oc2ccccc12; steady-state kinetics; pH 7.4, 37 °C).
`ADM2 fragment (Homo sapiens)` — result for “cAMP decay half-life”: 3.08 min (CALCRL/RAMP1 whole, on cells (Homo sapiens); cAMP, antagonist, CAMYEL BRET; COS-7).
For `Ppp2r5b E153R (Rattus norvegicus)`, “relative dephosphorylation inhibition” read 50 % inhibition (GST-TH 31-164, pS40 (UniProt P04177); Ser40 dephosphorylation; COS, immunoisolated holoenzyme; baseline: wild type, higher = less activity).
With `B2 (TIMP3 24-144)` the Ki was 0.29 nM (ADAMTS5 262-731 (Homo sapiens, UniProt Q9UNA0); inhibitor, steady-state kinetics; 1 h, pH 7.5, 37 °C).
Under “forward rate constant”, `PYCARD (Homo sapiens, UniProt Q9ULZ3-2)` is recorded as 8.6e-10 h (itself; real-time NMR; 495 µM).
`PIN1 (Homo sapiens, UniProt Q13526)` gave a kcat of 1 s⁻¹ (Grm5 C-terminal tail, pT1123/pS1126; isomerisation of pS1126-P, ZZ-exchange NMR; 82 µM Pin1, added: Homer1a 0.82 mM).
`B3 (erenumab)` has a pKB of 9.04 (CALCRL/RAMP1 on cells (Homo sapiens); cAMP production, antagonist, Schild analysis; antibody, Cos7; added: αCGRP).
The EC50 of `HSDGTFTSELSRLREGARLQRLL (SCT 1-23 (Homo sapiens))` is reported as 3.4 nM (SCTR SNAP-tag fusion, Lumi4-Tb label on SNAP-tag (UniProt P47872); cAMP accumulation, agonist; peptide, CHO-K1).
With `TPDYLMQLMNDKKLMSSLPNFSGIFNHLERLLDEEISRVRKDMYNDTLNGSTEK (Qki 14-67 C35S (Mus musculus, UniProt Q9QYS9))` the melting temperature was 69 °C (itself; CD thermal melting; 50 µM, His-tagged).
`NRTN fragment Y119A (Homo sapiens)`: “maximal luciferase signal” 86800 RLU (RET 29-635 (Homo sapiens, UniProt P07949); MAPK signaling, SRE luciferase reporter, agonist; TGW neuroblastoma; higher = stronger signal).

Repeated from above:
For `clusterin, methionine sulfoxide (Homo sapiens, UniProt P10909)`, “maximal Aβ42 fibrillation” read 76% (APP Aβ42 (UniProt P05067); ThT fluorescence; 0.3 µM, 37 °C; baseline: Aβ42 or BSA alone, higher = more fibrillation).
